Measurements collected from several papers.
Each numbered part is a random draw from the data of one study; scales do not carry over between parts.

Sample 1 — cell line: HEK-293T; organism: VSV pseudotyped with SARS-CoV-2 spike; tested at: 10 µM; time: 16 h; quantity: pseudovirus infection
Clc1ccccc1CN1CCc2sccc2C1: 87.1%
N[C@@H](CCC(=O)N[C@@H](CS)C(=O)NCC(=O)O)C(=O)O: 75.9%
CNC[C@H](O)c1ccc(O)c(O)c1: 76.3%
CCOc1ccc(Cc2cc([C@@H]3O[C@H](CO)[C@@H](O)[C@H](O)[C@H]3O)ccc2Cl)cc1: 95%

Sample 2 — method: RNA Bind-n-Seq; form: RNA; sample: in vitro; tested at: not given; baseline: input RNA pool; reading: higher = stronger binding; quantity: bound/input enrichment
Target: RING finger protein unkempt homolog, zinc fingers 1-6, GST-SBP tag (UNK, Homo sapiens, UniProt Q9C0B0, residues 30-357)
Setting: RNA with constant flanks, human-mouse chimeric sites, ends assumed
All sequences stand within: GGGAGUUCUACAGUCCGACGAUC … CAACAGAGGAUUGAGCAUCA
Target sequence (chain): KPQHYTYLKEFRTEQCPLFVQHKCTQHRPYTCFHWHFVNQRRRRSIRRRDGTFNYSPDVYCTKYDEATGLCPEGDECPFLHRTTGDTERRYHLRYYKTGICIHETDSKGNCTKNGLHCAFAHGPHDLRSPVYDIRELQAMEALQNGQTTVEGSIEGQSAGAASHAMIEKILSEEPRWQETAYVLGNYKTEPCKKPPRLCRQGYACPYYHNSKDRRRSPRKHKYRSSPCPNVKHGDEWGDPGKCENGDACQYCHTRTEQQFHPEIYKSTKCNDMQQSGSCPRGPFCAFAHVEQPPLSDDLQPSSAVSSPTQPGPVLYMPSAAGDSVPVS
AACAUUUUGUCAAAUUGUUAUGUUCCUGUGAAACAAGUGAACACUCUGAUACACUUCAUCUGCUUGUACAUUUAACUGAUAGAGAAAUGUAAAUAUGUUAAUCCAAGCAAUGUGUCACUU: 0.248 ratio
AGAUUCCCUCUCUUAAAGCCUUCUCCAAAGUUGGAGUCUCUUACAGAUGCCUCAUCCCCUGUUAGCGUUUUAGUUUGGACCACCCAGCCUUGGACAAUUCCCGCCAACCAGGCAAUUUGC: 0.729 ratio
ACAGUUAUACACUGUUGUUUCAUUUUCAUAUAUUCUUGUAGUGUCUGCUUGCCUGUGACUUCUGGUAAAAUAAAAUAAGCCUUUGAAAAUAUUUUAGCAUGGUAUUUAACAUUUUCUAAA: 1.9 ratio
ACAGUUAUAUUGUUGAGUUUCAUUUUCUUGUAUGUUUGUAGUGUCUGCUUGCCUGUGACUUCUGGUAAAAUAAAAUAUUAAAAUUACAAUAUUUUAGCAUGGUAUUUAACAUUUUCUAAA: 0.796 ratio
AGUUCCAAACCACCAUCAGAAAUGAAGAUGAGAUUACCCAGACGAGCCCAAAACCGCGCGCUACAGAAAAGUAAACUUAACCUUGCAGAGUUCCUUAAUGAAGAUACAAGUUAAGAGAGC: 0.186 ratio
GCGGCAGAAUCAUGGAGGACAUAAUGCAGCUCCCCAAAGCGCGCGUCAACGCCAGCAUGUUACCACAAUUCAUCGACCGGCCCGUGUGCUUCGUAGGGAAGCUGGAAAAGAUUCAUCCCA: 0.135 ratio
AUCAAAUACUUUGGGGACAUCAUUAGUGUGGGACAGAGACUGUUGCAAGGAGCUCGGAUCUUAGGGAUUCCAGUUAUCAUAACGGAACAAUACCCCAAAGGUCUUGGGAGCACGGUUCAA: 0.179 ratio
GUUGCCAGCUUCCGGUUCCGUUGGGCUCGGUUCUCUCCUGAGCUACGUGUCUCUACGCUCUCAAUCCCGGUUGGGUAAAACAUGGAUCAGGUAAUGCUGCAGUUUGUGCCCAGCCGGCAG: 0.0788 ratio

Sample 3 — read-out: enzyme activity; action: inhibitor; tested at: 20 µM; setting: hit confirmation; quantity: inhibition
Target: Replicase polyprotein 1ab, main protease (rep, Severe acute respiratory syndrome coronavirus 2, UniProt P0DTD1)
O=C(O)c1ccccc1-c1c2cc(I)c(=O)c(I)c-2oc2c(I)c(O)c(I)cc12: 12.9%
CC[C@@H](c1ccc(F)c(F)c1)n1c(C(=O)OC)c(-c2ccno2)[nH]c1=S: 22.3%
COc1cc2c(cc1OCCCN1CCCC1)N=C(N)C21CCC1: 5.2%

Sample 4 — method: RNAcompete; form: RNA; sample: in vitro; tested at: 20 nM; setting: 7-mer, probes averaged, single round; baseline: mean of 7-mers; reading: higher = stronger binding; quantity: 7-mer Z-score
Target: PABPC1L2, full length, GST fusion (mouse, UniProt A0ABA7IW68)
Residues (chain): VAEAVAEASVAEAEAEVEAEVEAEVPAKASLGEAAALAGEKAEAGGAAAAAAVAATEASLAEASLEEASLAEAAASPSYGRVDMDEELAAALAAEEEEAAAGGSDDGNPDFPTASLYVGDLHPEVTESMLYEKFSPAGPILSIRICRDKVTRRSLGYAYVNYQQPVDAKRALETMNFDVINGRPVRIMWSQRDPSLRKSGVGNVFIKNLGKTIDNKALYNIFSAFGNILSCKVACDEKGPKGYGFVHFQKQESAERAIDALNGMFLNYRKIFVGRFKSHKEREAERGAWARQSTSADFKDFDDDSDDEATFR
AGAGAAA: 1.25
AUAACCA: 0.0207
CAUUGGU: -0.162
GGCAUGC: -0.0609
UAGUAGU: -0.121
GAGUAAG: -0.151
UACCGCU: -0.354
CAGUCCU: -0.237

Sample 5 — action: inhibitor; tested at: 20 µM; quantity: inhibition
Target: Replicase polyprotein 1ab, nsp13 helicase (rep, Severe acute respiratory syndrome coronavirus 2, UniProt P0DTD1)
CO/N=C(\C(=O)N[C@@H]1C(=O)N2C(C(=O)O)=C(COC(C)=O)CS[C@H]12)c1csc(N)n1: 4.99%
COc1cc2c(cc1OC)CN(CCc1ccc(NC(=O)c3cc(OC)c(OC)cc3NC(=O)c3cnc4ccccc4c3)cc1)CC2: 5.71%
CC(OC(=O)OC1CCCCC1)OC(=O)C1=C(CSc2nnnn2CCN(C)C)CS[C@@H]2[C@H](NC(=O)Cc3csc(N)n3)C(=O)N12 (stereo partly drawn): 4.07%
CC(C)(NS(=O)(=O)c1ccc(Oc2ccc(F)cc2)cc1)C(=O)NO: 5.89%
C[N+]1(C)CCC(OC(=O)C(c2ccccc2)c2ccccc2)CC1: 7.27%
COc1ccccc1Oc1c(NS(=O)(=O)c2ccc(C(C)(C)C)cc2)nc(-c2ncccn2)nc1OCCO: 3.07%
Cc1nn(C)c2c1C(c1cccc(Cl)c1)=NCCN2: 4.05%
CCC1(c2ccc(N)cc2)CCC(=O)NC1=O (stereo not drawn): -2.51%
CC(C)OC(=O)[C@H](C)N[P@](=O)(CO[C@H](C)Cn1cnc2c(N)ncnc21)Oc1ccccc1: 2.6%
NC[C@H]1O[C@H](O[C@H]2[C@H](O)[C@@H](O[C@H]3O[C@H](CO)[C@@H](O)[C@H](N)[C@H]3O)[C@H](N)C[C@@H]2N)[C@H](N)C[C@@H]1O: 3.43%
CCOC(=O)c1ccccc1OC(N)=O: 8.69%
COC(=O)C1=C(C)NC(C)=C(C(=O)O[C@@H]2CCCN(Cc3ccccc3)C2)[C@@H]1c1cccc([N+](=O)[O-])c1 (racemic): 0.79%
Nc1ccc(S(=O)(=O)NC(=O)c2ccccc2)cc1: 0.77%
CC(C)(O)CC[C@@H](O)[C@](C)(O)[C@H]1CC[C@@]2(O)C3=CC(=O)[C@@H]4C[C@@H](O)[C@@H](O)C[C@]4(C)[C@H]3CC[C@]12C: -2.3%
CCOC(=O)[C@H](CCc1ccccc1)N[C@H]1CCc2ccccc2N(CC(=O)O)C1=O: 8.02%
OCc1ccc(O[C@@H]2O[C@H](CO)[C@@H](O)[C@H](O)[C@H]2O)cc1: -0.51%
